Measurements of several laboratories.
Each line is one published result; not all experiments were run side by side. Numbers after ± are the reported error.
Cell line: Caco-2

Cc1ccc(N(c2ccc(NC(=O)CN(C)c3ccccc3N3CCCC3=O)cc2)C(C)C)cc1
apparent permeability (basolateral to apical): 2.52 ×10⁻⁶ cm/s

COc1nc(NCc2cn(-c3ccc(NC(=O)c4ccc(Cl)cc4)cc3)nn2)nc(OC)n1
selectivity ratio (MTT; reference: normal rat colonocytes over Caco-2): 0.02

CC[C@@H]1C(=O)N(C)c2cnc(Nc3ccc(C(=O)NC4CCN(C)CC4)cc3OC)nc2N1C1CCCC1
recovery B-A (10 µM, 2 h): 71.6%

O=C(O)c1ccc(O)cc1
parent remaining (5 µM, 60 min, total recovered amount): ≤ 22%

CN1CCC(COc2cnc(-c3cccc(Cn4nc(-c5cccc(C#N)c5)ccc4=O)c3)nc2)CC1
Papp: 25.4 ×10⁻⁶ cm/s

CCCOC(=O)c1ccc(O)cc1
hydrolysed compound (5 µM, 60 min, A-B direction): 53.8 ± 2.4%

CCCCC(CC)CNC(=N)NC(=N)NCCCCCCNC(=N)NC(=N)NCC(CC)CCCC (stereo not drawn)
recovery (5 µM, 2 h, basolateral to apical): 28.1%

Cc1ccc(CCC(=O)Nc2nnc(S(N)(=O)=O)s2)cc1
Papp B to A: 13.8 ×10⁻⁶ cm/s

C1CCc2c(c(N3CCOCC3)nc3sc4c(N5CCNCC5)nnnc4c23)C1
Papp B-A (10 µM, 120 min, pH 7.4, without inhibitor): 15.9 ×10⁻⁶ cm/s

CCOc1cc(-c2nncn2C)ccc1Nc1ncc2cc(C)nc(NCC(C)(C)C)c2n1
Papp(B-A) (10 µM): 5.28 ×10⁻⁶ cm/s

O=C(O)C=Cc1ccc(O)cc1
recovery (Transwell mass balance; 1 mM, time not given, basolateral to apical): 116%

Cc1ccccc1CN1C(=O)C2=C(CCN(Cc3ccccc3)C2)N2CCN=C12
apparent permeability (apical to basolateral): 27 ×10⁻⁶ cm/s

COc1nc(NCc2cn(-c3ccc(NC(=O)c4ccc(F)cc4)cc3)nn2)nc(OC)n1
selectivity ratio (MTT; reference: normal rat colonocytes over Caco-2): 0.02

C[C@]12CC[C@@H]3c4ccc(OS(=O)(=O)O)cc4CC[C@H]3[C@@H]1CCC2=O
Papp (B to A) (no inhibitor, BCRP (novobiocin) set): 12.6 ×10⁻⁶ cm/s

CO[C@@H](C[C@H]1C(C)=CC[C@@H]2[C@]3(C)C[C@H](O[C@@H]4O[C@@H](C)[C@H](OC(=O)c5cccc(O)c5)[C@@H](O[C@@H]5O[C@H](CO)[C@@H](O)[C@H](O)[C@H]5NC(C)=O)[C@H]4O)[C@@H](O)C(C)(C)[C@H]3CC[C@]21C)[C@H](N)C(=O)O.O=C(O)C(F)(F)F
Papp A-B mean (5 µM, 1 h): 0.01 ×10⁻⁶ cm/s

CCCCCCCCOC(=O)c1ccc(O)cc1
hydrolysed compound (5 µM, 60 min, A-B direction): 42.3 ± 2.3%

Nc1n[nH]c2nc(-c3cccc(O)c3)cc(-c3cc4ccccc4nc3N3CCOCC3)c12
selectivity ratio (MTT; 72 h, 10% FBS; reference: WI-38 EC50 over Caco-2 IC50): 0.47

Cc1cc(Nc2cc3ncccc3c(N[C@@H]3C[C@H]4CC[C@@H](C3)N4CCC#N)n2)n[nH]1
Papp B-A (5 µM, 120 min): 37.9 ×10⁻⁶ cm/s

COc1ccc(NC(=O)c2ccc(-n3cc(CNc4nc(OC)nc(OC)n4)nn3)cc2)cc1
selectivity ratio (MTT; reference: normal rat colonocytes over Caco-2): 0.26

CNC(=C[N+](=O)[O-])NCCSCc1ccc(CN(C)C)o1
Papp A-B (10 µM, 2 h): < 1 ×10⁻⁶ cm/s

CC[C@H](C)C(=O)N1CCC(NC(=O)Nc2ccc(OC(F)(F)F)c(F)c2)CC1
percent recovery (Caco-2 permeability; 10 µM, 60 min, pH 7.4 apical, 7.4 basolateral, replicate 1, added: verapamil; apical to basolateral): 46%

C[C@H]1CNCCN1c1nccc(-c2onc3c2CCC[C@@]32CCCc3sc(N)c(C#N)c32)n1
Papp (A to B): 21 ×10⁻⁶ cm/s

CN(C)C/C=C/C(=O)Nc1cc2c(Nc3ccc(F)c(Cl)c3)ncnc2cc1O[C@H]1CCOC1
Papp B-A (100 µM, 3 h): ~4 ×10⁻⁶ cm/s

CC[C@H]1OC(=O)[C@H](C)[C@@H](O[C@H]2C[C@@](C)(OC)[C@@H](O)[C@H](C)O2)[C@H](C)[C@@H](O[C@@H]2O[C@H](C)C[C@H](N(C)C)[C@H]2O)[C@](C)(O)C[C@@H](C)C(=O)[C@H](C)[C@@H](O)[C@]1(C)O
mass balance (60 min, apical to basolateral): 103 ± 8.5%

O=C(Nc1c2c(cc3c1CCC3)CCC2)NS(=O)(=O)/C=C/c1nccs1
Papp B to A (2 µM, 120 min, pH 7.4): 10.8 ± 1.17 ×10⁻⁶ cm/s

O=c1c2cc(Cl)ncc2[nH]c(=S)n1Cc1cccnc1
Papp (B to A) (10 µM, 90 min, pH 7.4, 0.1% BSA receiver side): 42.9 ×10⁻⁶ cm/s

CCOc1cc(C(C)(C)C)ccc1C1=N[C@@H](c2ccc(Cl)cc2)[C@@H](c2ccc(Cl)cc2)N1C(=O)N1CCN(CC(=O)NCCOCCOCCOCCNC(=O)CN2CCN(C(=O)N3C(c4ccc(C(C)(C)C)cc4OCC)=N[C@@H](c4ccc(Cl)cc4)[C@H]3c3ccc(Cl)cc3)CC2=O)C(=O)C1 (relative stereo)
Papp A to B (10 µM, 2 h, 37 °C): 0.06 ×10⁻⁶ cm/s

CC(C)C[C@@H]1NC(=O)[C@H](C)NC(=O)[C@H](Cc2ccccc2)NCC2=CC=C(CN(C)C1=O)O2
Papp: 9.1 ×10⁻⁶ cm/s

COc1nc(NCc2cn(-c3ccc(C(=O)Nc4ccc(C)cc4)cc3)nn2)nc(OC)n1
selectivity ratio (MTT; reference: normal rat colonocytes over Caco-2): 0.27

COCC(=O)OCc1cc2[nH]c(=S)n(Cc3cccnc3)c(=O)c2cc1Cl
Papp (B to A) (10 µM, 90 min, pH 7.4, 0.1% BSA receiver side): 0.1 ×10⁻⁶ cm/s

N#C[C@@]1(c2ccc3c(N)ncnn23)O[C@H](CO)[C@@H](O)[C@H]1O
recovery (bidirectional permeability; 10 µM, 120 min; apical to basolateral): 106%

CCCOc1nc(-c2cccc(O)c2)cc(-c2cc3ccccc3nc2N2CCOCC2)c1C#N
selectivity ratio (MTT; 72 h, 10% FBS; reference: WI-38 EC50 over Caco-2 IC50): 0.931

O=c1c2cc(Cl)ccc2[nH]c(=S)n1Cc1ccc(-c2nnn[nH]2)nc1
Papp (B to A) (10 µM, 90 min, pH 7.4, 0.1% BSA receiver side): 5.5 ×10⁻⁶ cm/s

C[C@@H]1CCN(C(=O)CC#N)C[C@@H]1N(C)c1ncnc2[nH]ccc12
Papp A-B (5 µM, 120 min): 11.8 ×10⁻⁶ cm/s

NS(=O)(=O)c1nnc(NC(=O)CCC2CC3CCC2C3)s1 (stereo not drawn)
Papp B to A: 13.2 ×10⁻⁶ cm/s

C#Cc1c(F)ccc2cc(O)cc(-c3ncc4c(N5CC6CCC(C5)N6)nc(OC[C@@]56CCCN5C[C@H](F)C6)nc4c3F)c12
Papp (B to A) (no inhibitor, P-gp (verapamil) set): 11 ×10⁻⁶ cm/s

CC(C)NCC(O)COc1cccc2ccccc12 (stereo not drawn)
recovery (5 µM, 2 h, basolateral to apical): 75.2%

COc1nc(NCc2cn(-c3ccc(NC(=O)c4ccc(C)cc4)cc3)nn2)nc(OC)n1
selectivity ratio (MTT; reference: normal rat colonocytes over Caco-2): 0.03

CC(C)NCC(O)COc1cccc2ccccc12 (stereo not drawn)
apparent permeability: 22.6 ×10⁻⁶ cm/s

Excerpt of the above:
N#C[C@@]1(c2ccc3c(N)ncnn23)O[C@H](CO)[C@@H](O)[C@H]1O
recovery (bidirectional permeability; 10 µM, 120 min; apical to basolateral): 106%

O=c1c2cc(Cl)ncc2[nH]c(=S)n1Cc1cccnc1
Papp (B to A) (10 µM, 90 min, pH 7.4, 0.1% BSA receiver side): 42.9 ×10⁻⁶ cm/s

C#Cc1c(F)ccc2cc(O)cc(-c3ncc4c(N5CC6CCC(C5)N6)nc(OC[C@@]56CCCN5C[C@H](F)C6)nc4c3F)c12
Papp (B to A) (no inhibitor, P-gp (verapamil) set): 11 ×10⁻⁶ cm/s
